Measured values from different studies.
Each line is one published result; not all experiments were run side by side.
Medium: plasma

NC(=O)c1cnc2[nH]ccc2c1N[C@@H]1[C@@H]2CC3C[C@H]1C[C@@](O)(C3)C2 — Tmax (male human; oral, 20 mg, single dose, fasted, healthy volunteers): 1 h
CS(=O)(=O)n1cc2c(n1)CN([C@H]1CO[C@H](c3cc(F)ccc3F)[C@@H](N)C1)C2 — Tmax (male human; oral, 25 mg, single dose, fasted): 1 h
CNC(=O)c1ccc(-c2cnc3ncc(Cc4ccc5ncccc5c4)n3n2)cc1F — Tmax (human; oral, 100 mg twice daily, multiple doses, steady state, patients): 2.86 h
CC(C)(Sc1ccncc1-c1ccc(C#N)c2ccccc12)C(=O)O — Tmax (male human; oral, 5 mg, single dose, fasted): 1.25 h
Cn1ncnc1[C@H]1c2n[nH]c(=O)c3cc(F)cc(c23)N[C@@H]1c1ccc(F)cc1 — Tmax (human; oral, 0.5 mg, single dose): 1 h
CN(C)C/C=C/C(=O)Nc1cc2c(Nc3ccc(F)c(Cl)c3)ncnc2cc1O[C@H]1CCOC1 — Tmax (human; oral, 10 mg, multiple doses, once daily, steady state, patients): 3 h
CCCOc1ccc([C@H]2CNC(=O)N2c2ccc3[nH]cnc3c2)cc1 — Tmax (human; oral, 1800 mg, single dose, fasted, healthy volunteers): 1.26 h
CNCc1ccc(-c2[nH]c3cc(F)cc4c3c2CCNC4=O)cc1 — Tmax (human; oral, 600 mg, single dose, fed): 7.83 h
O=C(c1nc2n(n1)[C@H](c1ccccc1)C[C@@H]2F)C1CC1 — Tmax (human; oral, 150 mg, single dose, fasted, healthy volunteers): 4 h
C[C@H](N)C(=O)N1C[C@H](CCCB(O)O)[C@](N)(C(=O)O)C1 — Tmax (human; oral, 100 mg twice daily, multiple doses, patients): 4 h
C[C@@H](N)c1cc(Cl)ccc1Cn1c(=S)[nH]c(=O)c2[nH]ccc21 — Tmax (human; oral, 2.5 mg, multiple doses, once daily, healthy volunteers): 1.77 h
CCCC[C@H](NC(C)=O)C(=O)N[C@H]1CCC(=O)NC[C@@H](C(=O)N[C@@H](Cc2c[nH]c3ccccc23)C(N)=O)NC(=O)[C@H](CCCNC(=N)N)NC(=O)[C@@H](Cc2ccccc2)NC(=O)[C@H](Cc2c[nH]cn2)NC1=O — Tmax (human; subcutaneous, 3 mg, multiple doses, once daily): 0.5 h
CC(=O)N[C@H]1CC[C@H](NC(=O)CN2CCN(c3nncc(-c4ccc(C)cc4)n3)CC2)CC1 — Tmax (human; oral, 50 mg, single dose, fasted, healthy volunteers): 1 h
C#C[C@]1(CO)O[C@@H](n2cnc3c(N)nc(F)nc32)C[C@@H]1O — Tmax (human; oral, 100 mg, single dose, fasted): 0.5 h
O=C(O)COC[C@H]1CC[C@H](COC(=O)N(c2ccccc2)c2ccc(Cl)cc2)CC1 — Tmax (human; oral, 40 µg, multiple doses, twice daily, steady state): 1 h
O=C(O)C[C@H](O)C[C@H](O)/C=C/c1c(C2CC2)nc2ccccc2c1-c1ccc(F)cc1 — Tmax (male human; oral, 2 mg, multiple doses, once daily): 0.6 h
C[C@@H]1CCC[C@H](n2cnc(-c3cc(Cl)ccc3-n3cc(Cl)nn3)cc2=O)c2cc(ccn2)-c2c(cnn2C(F)F)NC1=O — Tmax (human; oral, 500 mg, single dose, fasted, healthy volunteers): 3 h
Nc1ncc(-c2cnn(CCO)c2)c2scc(-c3ccc(NC(=O)Nc4cccc(F)c4)cc3)c12 — Tmax (human; oral, 640 mg, patients): 2.7 h
CNc1nc(Nc2ccc(-n3cnc(C)n3)c(OC)c2)nc2c1CC[C@H]2c1ccc(F)cc1 — Tmax (human; oral, 900 mg, healthy volunteers): 4.5 h
COc1cccc(-c2ccc(NC(=O)C3=C(C(=O)O)CCC3)c(F)c2)c1 — Tmax (male human; oral, 10 mg, single dose, fed, healthy volunteers): 7 h
O=C(COc1ccc(Cl)cc1)NC12CC(c3nnc([C@H]4C[C@@H](OC(F)(F)F)C4)o3)(C1)C2 — Tmax (human; oral, fasted, healthy volunteers): 14 to 24 h
O=C(c1cccnc1-c1ccncc1)N1CCC(O)(Cc2ccccc2)CC1 — Tmax (human; oral, 100 mg, multiple doses, once daily, healthy volunteers): 0.42 h
Nc1cc(F)ccc1NC(=O)c1ccc(CNC(=O)/C=C/c2cccnc2)cc1 — Tmax (human; oral, 40 mg, patients): 2.42 h
CN(C)Cc1c(C(=O)NCCOc2ccc(C(=O)NO)cc2)oc2ccccc12 — Tmax (human; oral, 40 mg, single dose, patients): 0.5 h
CS(=O)(=O)n1cc2c(n1)CN([C@H]1CO[C@H](c3cc(F)ccc3F)[C@@H](N)C1)C2 — Tmax (male human; oral, 10 mg, multiple doses, healthy volunteers): 4 h
CCCCCN1C[C@H](O)[C@@H](O)[C@H](O)[C@@H]1CO — Tmax (male human; oral, 10 mg, single dose, fasted, healthy volunteers): 1 h

Repeated from above:
CCCC[C@H](NC(C)=O)C(=O)N[C@H]1CCC(=O)NC[C@@H](C(=O)N[C@@H](Cc2c[nH]c3ccccc23)C(N)=O)NC(=O)[C@H](CCCNC(=N)N)NC(=O)[C@@H](Cc2ccccc2)NC(=O)[C@H](Cc2c[nH]cn2)NC1=O — Tmax (human; subcutaneous, 3 mg, multiple doses, once daily): 0.5 h
CNc1nc(Nc2ccc(-n3cnc(C)n3)c(OC)c2)nc2c1CC[C@H]2c1ccc(F)cc1 — Tmax (human; oral, 900 mg, healthy volunteers): 4.5 h
C#C[C@]1(CO)O[C@@H](n2cnc3c(N)nc(F)nc32)C[C@@H]1O — Tmax (human; oral, 100 mg, single dose, fasted): 0.5 h
CC(C)(Sc1ccncc1-c1ccc(C#N)c2ccccc12)C(=O)O — Tmax (male human; oral, 5 mg, single dose, fasted): 1.25 h
